Measured values pooled from the literature.
Protocols differ between the studies behind these lines.
Effect on: metabolic stability
Host: human
Sample: liver microsomes

With COc1cc2c(=O)c(C(=O)NCCNCCO)cn(Cc3ccccc3)c2cc1OCc1ccc(C(C)(C)C)cc1 the microsomal CLint was less than 11.6 µL/min/mg (1 µM).
For Cc1cc(N2CC[C@@](C#N)(C3CC3)C2=O)cc(NC(=O)Cc2ccccc2)n1, the microsomal CLint was 106 µL/min/mg (0.5 µM).
The microsomal CLint of CC1=N[C@H](C)Cc2c(-c3ccc(C)cc3)ccc(O)c21 is reported as 28.2 µL/min/mg (1 µM).
The microsomal CLint of COc1cncc(-c2cc(F)cc(CNC(=O)c3cc(N4CC[C@@](C#N)(C5CC5)C4=O)cc(C)n3)c2)c1 is reported as 249 µL/min/mg (0.5 µM).
The microsomal CLint of CNC(=O)C1CCN(c2cc(C)c(F)cc2NC(=O)c2ccc(-c3cc(O)ccc3C)c(C)c2)CC1 is reported as 11 µL/min/mg (2 µM).
COc1cc(OC)c(F)c(/C=C/c2cnc3ccn(S(=O)(=O)c4cn(CCF)cn4)c3n2)c1F has a microsomal CLint of 100 µL/min/mg (1 µM, pH 7.4).
CNC(=O)C1CCN(c2cc(C)c(F)cc2NC(=O)c2ccc(-c3c(C)ccc4[nH]ncc34)c(C)c2)CC1 gave a microsomal CLint of 2.7 µL/min/mg (2 µM).
O=C(C1CCN(c2nnnn2-c2ccccc2)CC1)N1CCCc2ccccc21 has a microsomal CLint of greater than 578 µL/min/mg (1 µM).
CCN(c1nc(N[C@H](CC(N)=O)C(=O)NC)nc(N2CCN(c3ccccc3C#N)CC2)n1)C1CCCCC1 gave a microsomal CLint of 22 µL/min/mg.
O=C(C1CCN(c2nnnn2-c2ccccc2)CC1)N1CCOc2ccccc21 gave a microsomal CLint of 98 µL/min/mg (1 µM).
CCn1cc(C(=O)NCCNCCO)c(=O)c2cc(OCc3ccc(F)cc3)c(Cl)cc21 has a microsomal CLint of less than 11.6 µL/min/mg (1 µM).
For CC12CC3CC(C)(C1)CC(NC(=O)NC1CCC(Oc4ccc(C(=O)O)cc4)CC1)(C3)C2 (stereo not shown), the microsomal CLint was 84 µL/min/mg.
With CCC(C)n1c(C(=O)Nc2cnc(C(=O)NC)n(CC(C)C)c2=O)ncc(NC(=O)c2ncc(NC(=O)c3ccccc3)c(=O)n2Cc2ccc(OC)cc2)c1=O (stereo not shown) the microsomal CLint was 6 µL/min/mg (2 µM, pH 7.4).
The microsomal CLint of CN1C(=O)C2(Nc3ccccc3C(=O)N2Cc2ccccc2)c2cc(Br)ccc21 (stereo not shown) is reported as greater than 300 µL/min/mg.
The microsomal CLint of O=C(NCCNCCO)c1cn(Cc2ccccc2)c2c(Cl)c(OCc3ccc(C(F)(F)F)cc3)c(Cl)cc2c1=O is reported as less than 11.6 µL/min/mg (1 µM).
The microsomal CLint of CNC(=O)c1cc(C)ccc1NC(=O)c1ccc(-c2c(C)ccc3[nH]ncc23)c(C)c1 is reported as 3 µL/min/mg (2 µM).
With COc1cc(C)c(-c2ccc(O)c3c2C[C@@H](C)N[C@@H]3C)c2cccc(O)c12 (single isomer, unassigned) the microsomal CLint was 15.4 µL/min/mg (1 µM).
CNC(=O)C1CCN(c2ccccc2NC(=O)c2ccc(-c3cc(O)ccc3C)c(C)c2)CC1 gave a microsomal CLint of 37 µL/min/mg (2 µM).
The microsomal CLint of CC12CC3(C)CC(C)(C1)CC(NC(=O)NC1CCC(Oc4ccc(C(=O)O)cc4)CC1)(C2)C3 (stereo not shown) is reported as 196 µL/min/mg.

Some of these lines once more:
The microsomal CLint of CN1C(=O)C2(Nc3ccccc3C(=O)N2Cc2ccccc2)c2cc(Br)ccc21 (stereo not shown) is reported as greater than 300 µL/min/mg.
